Measured values from different studies.
Protocols differ between the studies behind these lines. “And” joins repeats or separate records; there may be more than shown. Numbers after ± are the reported error.

Compound | cell line | test | test system | conditions | how to read | endpoint | result
C=CC(=O)N1CCC[C@@H](n2nc(-c3ccc(Oc4ccccc4)cc3)c3c(N)ncnc32)C1 | Ramos | calcium flux, FLIPR |  | 1 h preincubation |  | IC50 | 0.00287 µM
COC(=O)c1cc(C(C)=NNc2nc(-c3ccc4c(c3)OCCCO4)cs2)ccc1O | T47D | annexin V/PI flow cytometry |  | 10 µM, 72 h |  | apoptotic cells | 11 ± 1.37%
N#CC[C@H](C1CCCC1)n1cc(-c2ncnc3[nH]ccc23)cn1 | iCell Cardiomyocytes (hiPSC-derived) | xCELLigence Cardio impedance |  | concentration not given, 2 h | baseline: control | beat rate | 102%
C#C[C@@]1(O)[C@@H](CO)O[C@@H](n2cc(Cl)c3c(N)ncnc32)[C@@H]1O | NCI/ADR-RES | cell growth, SRB |  |  |  | TGI | 0.777 µM
COc1ccc2ncnc(Cc3cccc(-c4ccccc4)c3)c2c1 | A549 | mitochondrial oxygen consumption, Seahorse XF96 |  | 10 µM |  | inhibition | 63%
CC(C)(C)c1cnc(CSc2cnc(NC(=O)C3CCN(C(=O)CCCCCCCN4Cc5cc6c(cc5C4)C(=O)N(C4CCC(=O)NC4=O)C6=O)CC3)s2)o1 (stereo not drawn) | TC-71 | DNA replication |  | 50 nM, 24 h |  | BrdU incorporation | decreased
CC[C@@H]1C(=O)N(C)c2cnc(Nc3ccc(C(=O)NC4CCN(C)CC4)cc3OC)nc2N1C1CCCC1 | iCell Cardiomyocytes (hiPSC-derived) | CellTiter-Glo |  | concentration not given, 24 h | baseline: control | ATP level | 91.7%
OC1CCN(c2ccc(/C=N/NC(=S)Nc3ccc(Cl)cc3)cc2)CC1 | BEAS-2B and A549 | MTT |  |  | baseline: IC50 BEAS-2B over IC50 A549 | selectivity ratio | 4.7
Cc1cc(Nc2ncc(Cl)c(Nc3ccccc3S(=O)(=O)C(C)C)n2)c(OC(C)C)cc1C1CCNCC1 | CLB-GE | phosphoproteomics LC-MS/MS, measured: MAP1A phosphorylation |  | 200 nM, 60 min | baseline: untreated | log2 fold change | -2.94
CCOC(=O)c1sc(NCc2ncccn2)nc1-c1ccccn1 | THLE-2 |  |  |  | baseline: CC50 THLE-2 over Huh-7 | selectivity ratio | < 2
CCN(CC)CCNC(=O)c1c(C)[nH]c(/C=C2\C(=O)Nc3ccc(F)cc32)c1C | iCell Cardiomyocytes (hiPSC-derived) | cellular impedance |  | concentration not given, 24 h | baseline: control | cell index | 106%
c1ccc2[nH]ccc2c1 | HCT-8 | RNA-seq, measured: SLC43A2 |  | concentration not given |  | mRNA level, LS mean | 119 counts per million
COc1ccc(-n2nc(C(C)=O)s/c2=N\N=C(/C)c2ccc(NC(=O)c3ccc(C)cc3)cc2)cc1 | HepG2 |  |  | 0.156 µM |  | toxicity | 46.2%
Cn1cc(Nc2nccc(-c3ccc4c(c3)CN(C3COC3)CC[C@H]4NC(=O)c3cn(C(C)(C)C)nn3)n2)cn1 | mouse splenic B cells | measured: Androgen signalling |  | 30 mg/kg, IgD-activated in vivo | baseline: vehicle, direction not given | pathway activation z-score | 2.45
O=C(/C=C/C=C/C=C/C1CCCCC1)NC1=C[C@@](O)(/C=C/C=C/C=C/C(=O)NC2=C(O)CCC2=O)[C@@H]2O[C@@H]2C1=O | MDA-MB-157 | cell growth, CellTiter-Glo |  | 78 h |  | GI50 | 7.78 µM
C=CC(=O)N1C/C(=C\c2ccc([N+](=O)[O-])cc2)C(=O)/C(=C/c2ccc([N+](=O)[O-])cc2)C1 | ARPE-19 HiBiT fibulin-3 | HiBiT luminescence |  | 5 µM |  | fibulin-3 level | -63%
Cl.Cl.NCCNS(=O)(=O)c1ccc(Cl)c2ccncc12 | SK-OV-3 | ATP | 3D spheroid culture | 10 µM, 4 days, together with: GA-017 10 µM | baseline: DMSO | relative cell number | 254%
COc1ccc2c(N(C)c3ccc(/C(C)=N/OCCN)cc3)c3c(Cl)coc3nc2c1 | LNCaP C-81 | immunoblot |  | 1 µM, 72 h, steroid-reduced medium |  | Bax protein level | increased
COc1cc(/C=C/C(=O)N2CCC=CC2=O)cc(OC)c1OC | MDA-MB-468 | qRT-PCR, measured: MT2A |  | 30 µM, 6 h | baseline: time zero | mRNA level | 79.9 ± 10.2%
CCCN1CCN(c2ccc3[nH]c(-c4ccc5[nH]c(-c6ccc(OCC)c(OCC)c6)nc5c4)nc3c2)CC1 | KM12 | SRB |  | 10 µM, 48 h |  | growth percent | -54.8%
C=CC(=O)Nc1cccc(Oc2nc(Nc3ccc(N4CCN(C)CC4)cc3)nc3ccoc23)c1 | TMD8 RAC2 knockout | calcium flux, FLIPR |  | 2 h preincubation |  | IC50 | 0.023 µM
O=C(O)c1ccc(-c2c[nH]c3ncc(-c4ccccc4)cc23)cc1C1CCCC1 | SK-OV-3 | ATP |  | 1 µM, 4 days, 3D gellan gum culture | baseline: untreated | relative cell number | 96.2%
C[C@H]1C[C@H]2[C@@H]3CCC4=CC(=O)C=C[C@]4(C)[C@H]3C(=O)C[C@]2(C)[C@@]1(O)C(=O)CO | HepaRG | ROS-Glo |  |  |  | maximal ROS response | -53.6 ± 71.2%
O=c1[nH]nc(OCCCc2ccc(Cl)cc2)c(NCc2cccnc2)c1Br | HEK-293T | RNA-seq GSEA, measured: HALLMARK_MITOTIC_SPINDLE |  | concentration not given | direction not given | normalized enrichment score | 0.768
C=CC(=O)N1CCC([C@@H]2CCNc3c(C(N)=O)c(-c4ccc(Oc5ccccc5)cc4)nn32)CC1 | TMD8 RAC2 knockout | calcium flux, FLIPR |  | 1 h preincubation |  | IC50 | 0.0066 µM
CC/C(=N\NC(=O)C(C)Nc1ccccc1)c1ccc(O)c(C)c1O (stereo not drawn) | SK-OV-3 | Western blot, measured: LATS |  | 10 µM, 6 h, 3D gellan gum culture, unit not given | baseline: β-actin | protein level | 0.54 ± 0.21
COc1ccc2c(c1)NC(=O)CN2c1nc(C)nc2ccccc12 | A549 | flow cytometry |  | 0.003 µM, 24 h |  | cells in G0/G1 phase | 3.74%

Compound | cell line | test | test system | conditions | how to read | endpoint | result
CCn1cc(-c2cc(Cn3ccnc3)cc3c2CCN([C@H](c2cc(OC)ccn2)C2CC2)C3=O)c(C(F)(F)F)n1 | MCAS | cell growth |  | 120 h |  | EC50 | 9.04 µM
Cn1cc(-c2ccc(-c3cncc(Cl)c3N3CCC4(CCNC4=O)CC3)cc2)cn1 | COLO 205 | gene expression, microarray, measured: SERPINH1 mRNA |  | concentration not given, 2 h | baseline: untreated cells | log2 fold change | 2.01
COc1cnc2cccc(N3CCc4c(cc(Cn5ccnc5C)cc4-c4cn(C)nc4C(F)(F)F)C3=O)c2c1 | HCC15 | cell growth, inhibitor |  | 120 h |  | EC50 | 13.6 µM
Cc1nc(N(Cc2ccccc2)c2ccc3c(c2)/C(=C/c2ccccc2)C(=O)N3Cc2ccccc2)c2ccccc2n1 (mixture of isomers) | A549 |  |  | 0.3 µM, 24 h | baseline: untreated | reduction of wound healing rate | 20.2%
Cn1cc(-c2ccc(F)c(C(F)(F)F)c2)nc1C1CCN(c2ncnc3[nH]ncc23)CC1 | SK-OV-3 | ATP |  | 10 µM, 4 days, 3D gellan gum culture | baseline: untreated | relative cell number | 94.4%
Cc1ccc2nc(NCCN)c3ncc(C)n3c2c1 | iCell Cardiomyocytes (hiPSC-derived) | cellular impedance |  | concentration not given, 24 h | baseline: control | cell index | 96.8%
COc1ccc(NC(=S)N/N=C/c2cccc3cc4ccccc4nc23)cc1 | HeLa | TMRE flow cytometry |  | IC12.5, 48 h, unit not given, together with: N-acetylcysteine | baseline: DMSO control | mitochondrial membrane potential | 1.11 ± 1.28
CCCCc1oc2ccc(NS(C)(=O)=O)cc2c1C(=O)c1ccc(OCCCN(CCCC)CCCC)cc1 | human embryonic stem cell aggregates | mRNA level, microarray, measured: KCNK10 |  | 0.5 µM, 120 h | baseline: untreated, up-regulated | fold change | 4 fold
CSc1cc(Oc2ccnc3[nH]c(=O)cnc23)ccc1NC(=O)Nc1cc(C(C)(C)C)nn1-c1ccccc1 | patient-derived cells | RPPA, measured: phosphorylated SAPK/JNK |  | 1 µM, 4 h, mean of three patients | baseline: DMSO | phospho ratio | 0.57
CCn1cc(-c2cc(Cn3ccoc3=N)cc3c2CCN([C@@H](C)c2cc(OC)ccn2)C3=O)c(C(F)(F)F)n1 | Ramos | cell growth, inhibitor |  | 120 h |  | EC50 | 1.17 µM
Cn1c(Nc2nc3ccc(C(F)(F)F)cc3s2)nc2cc(C(=O)NCCOCCO)ccc21 | SH-SY5Y | RNA-seq, measured: FGF5 mRNA |  | 5 µM, 5 h | baseline: untreated cells | fold change | 2.13
COc1ccc(C[C@@H]2c3cc(Oc4cc(/C=C5\CN(C)CCc6cc(OC)c(OC)cc65)ccc4O)c(OC)cc3CCN2C)cc1 | 3T3-L1 | adipocyte lipid accumulation, Nile Red staining |  | 15 µM |  | inhibition | 36.2 ± 1.8%
C=CC(=O)N1CCC[C@@H](c2ccc(C(N)=O)c3[nH]ccc23)C1 | TMD8 RAC2 knockout | calcium flux, FLIPR |  | 2 h preincubation |  | IC50 | 0.019 µM
CCn1c(-c2nonc2N)nc2cncc(CNC3CCNCC3)c21 | SK-OV-3 | ATP | 2D monolayer culture | 0.1 µM, 4 days | baseline: untreated | relative cell number | 114%
COc1cc(N2CCC(N3CCN(C)CC3)CC2)ccc1Nc1ncc(Cl)c(Nc2ccccc2P(C)(C)=O)n1 | Ba/F3 EML4-ALK variant 1 S1206F | cell viability |  |  |  | IC50 | 0.0905 µM
C[S+]([O-])c1ccc(-c2nc(-c3ccncc3)c(-c3ccc(F)cc3)[nH]2)cc1 (stereo not drawn) | iCell Cardiomyocytes (hiPSC-derived) | xCELLigence Cardio impedance |  | concentration not given, 2 h | baseline: control | beat rate | 95.7%
Cc1nn(-c2nc3c(F)cc(F)cc3s2)c(O)c1C(c1ccc(C(F)(F)F)cc1)c1c(C)nn(-c2nc3c(F)cc(F)cc3s2)c1O | RAW-ISG | RT-qPCR |  | 10 µM, unit not given, together with: poly(I:C) | baseline: DMSO | IFNB1 mRNA level | 0.878 and 1.17 and 0.977
CCCCCCNC(=O)n1cc(F)c(=O)[nH]c1=O | SW-403 | LC-MS, measured: Cer(d18:1/16:0) |  | 10 µM |  | ceramide level | 121 ± 13.7 pmol/mg protein
CN1CC[C@H](c2c(O)cc(O)c3c(=O)cc(-c4ccccc4Cl)oc23)[C@H](O)C1 | iCell Cardiomyocytes (hiPSC-derived) | cellular impedance |  | concentration not given, 24 h | baseline: control | cell index | 48.7%
O=c1ncccn1[C@@H]1O[C@H](CO)[C@@H](O)[C@H]1O | MEC1 | caspase-3/7 activation |  | concentration not given, 48 h pretreatment, maximum, any combination, unit not given, together with: external beam irradiation 1 and 2 Gy | baseline: control | apoptotic cells | ~7
Cc1cccc(-c2[nH]c(CNc3ccccc3F)nc2-c2ccc3ncnn3c2)n1 | MM1.S | XTT |  | 1.2 µM | baseline: untreated | viability | 51%
C#Cc1cccc(Nc2ncnc3cc(OCCOC)c(OCCOC)cc23)c1 | iCell Cardiomyocytes (hiPSC-derived) | xCELLigence Cardio impedance |  | concentration not given, 2 h | baseline: control | beat amplitude | 96.8%
CC1(C)COc2ccc(F)cc2CN2c3nc4c(cnn4cc3OC[C@H]2C(F)F)C(=O)N1 | Ba/F3 EML4-ALK variant 1 E1210K | cell viability |  |  |  | Emax | 99.6%
CC(C)C[C@@H](C=O)NC(=O)[C@H](CC(C)C)NC(=O)[C@H](CC(C)C)NC(=O)OCc1ccccc1 | HEK293 | measured: CD4 signal peptide-FLuc reporter |  | concentration not given, 6 h, time-course chase, unit not given, together with: cycloheximide | baseline: untreated | FLuc activity | 1.45
O=C(Oc1cc(O)cc2c1C[C@@H](OC(=O)c1cc(O)c(O)c(O)c1)[C@@H](c1cc(O)c(O)c(O)c1)O2)c1cc(O)c(O)c(O)c1 | Jurkat TAg T cells | phospho-flow cytometry |  | 500 nM, 30 min, 37 °C, unstimulated | baseline: DMSO | phospho-ZAP-70 positive cells | 3.4%
Cc1[nH]c(/C=C2\C(=O)Nc3ccc(S(=O)(=O)Cc4c(Cl)cccc4Cl)cc32)c(C)c1C(=O)N1CCC[C@@H]1CN1CCCC1 | iCell Cardiomyocytes (hiPSC-derived) | CellTiter-Glo |  | concentration not given, 24 h | baseline: control | ATP level | 95.6%
CC(C)NCC(O)c1ccc(O)c(O)c1 (stereo not drawn) | mouse ventricular cardiomyocytes |  |  | dose not given, 0.175 s |  | sarcomere length | 1.63 µm

Repeated from above:
Compound | cell line | test | test system | conditions | how to read | endpoint | result
C=CC(=O)N1CCC[C@@H](n2nc(-c3ccc(Oc4ccccc4)cc3)c3c(N)ncnc32)C1 | Ramos | calcium flux, FLIPR |  | 1 h preincubation |  | IC50 | 0.00287 µM
Cc1ccc2nc(NCCN)c3ncc(C)n3c2c1 | iCell Cardiomyocytes (hiPSC-derived) | cellular impedance |  | concentration not given, 24 h | baseline: control | cell index | 96.8%
CN1CC[C@H](c2c(O)cc(O)c3c(=O)cc(-c4ccccc4Cl)oc23)[C@H](O)C1 | iCell Cardiomyocytes (hiPSC-derived) | cellular impedance |  | concentration not given, 24 h | baseline: control | cell index | 48.7%
Cc1nc(N(Cc2ccccc2)c2ccc3c(c2)/C(=C/c2ccccc2)C(=O)N3Cc2ccccc2)c2ccccc2n1 (mixture of isomers) | A549 |  |  | 0.3 µM, 24 h | baseline: untreated | reduction of wound healing rate | 20.2%
